Published values pooled from the literature.
Each line is one published result; not all experiments were run side by side.

`CC#CC(=O)N1CCC[C@H]1c1nc(-c2ccc(C(=O)Nc3ccccn3)cc2)c2c(N)nccn12` has an AUC(0-inf) of 1110 ng·h/mL (human, plasma; oral, 100 mg, single dose, fasted).
For `CCOc1cc([C@@H](CS(C)(=O)=O)N2C(=O)c3cccc(NC(C)=O)c3C2=O)ccc1OC`, the AUC(0-inf) was 3270 ng·h/mL (human, plasma; oral, 30 mg, single dose, healthy volunteers).
With `Nc1ccc(-c2nc([C@H]3CCc4cc(-c5cc(Cl)ccc5-n5cnnn5)cc(=O)n43)c(F)[nH]2)c(F)n1` the AUC(0-inf) was 148 ng·h/mL (human, plasma; oral, 1 mg, single dose, fasted).
`CC[C@@]1(O)C(=O)OCc2c1cc1n(c2=O)Cc2cc3c(CN(C)C)c(O)ccc3nc2-1` gave an AUC(0-inf) of 61 ng·h/mL (human, plasma; oral, 4 mg, patients).
For `CC(C)(Sc1ccncc1-c1ccc(C#N)c2ccccc12)C(=O)O`, the AUC(0-inf) was 42.3 ng·h/mL (male human, plasma; oral, 5 mg, single dose, fasted).
`CC(=O)O[C@@]12CO[C@@H]1C[C@H](O)[C@@]1(C)C(=O)[C@H](O)C3=C(C)[C@@H](OC(=O)[C@H](O)[C@@H](NC(=O)OC(C)(C)C)c4ccccc4)C[C@@](O)([C@@H](OC(=O)c4ccccc4)[C@H]21)C3(C)C` gave an AUC(0-inf) of 1530 ng·h/mL (human, plasma; intravenous, 75 mg/m², patients).
`C[C@@H]1CCC[C@H](n2cnc(-c3cc(Cl)ccc3-n3cc(Cl)nn3)cc2=O)c2cc(ccn2)-c2c(cnn2C(F)F)NC1=O` has an AUC(0-inf) of 1280 ng·h/mL (human, plasma; oral, 20 mg, single dose, fasted, healthy volunteers).
`O=C(/C=C/c1cccc(S(=O)(=O)Nc2ccccc2)c1)NO` gave an AUC(0-inf) of 66.7 µM·h (human, plasma; intravenous, 800 mg/m², patients).
The AUC(0-inf) of `C=CC(=O)Nc1cc(Nc2ncc(C(=O)OC(C)C)c(-c3cn(C)c4ccccc34)n2)c(OC)cc1N(C)CCN(C)C` is reported as 64 ng·h/mL (human, plasma; oral, 20 mg, single dose, fasted, healthy volunteers).
With `CNC(=O)c1ccccc1Sc1ccc2c(/C=C/c3ccccn3)n[nH]c2c1` the AUC(0-inf) was 142 ng·h/mL (human, plasma; oral, 5 mg, single dose, fed).
`C[C@H]1CO[C@@H]2Cn3cc(C(=O)NCc4ccc(F)cc4F)c(=O)c(O)c3C(=O)N12` gave an AUC(0-inf) of 148000 ng·h/mL (human, plasma; oral, 30 mg, single dose, fasted, healthy volunteers).
`COc1cccc(-c2ccc(NC(=O)C3=C(C(=O)O)CCC3)c(F)c2)c1` has an AUC(0-inf) of 138000 ng·h/mL (male human, plasma; oral, 30 mg, single dose, fasted, healthy volunteers).
`CCOc1ccc(Cc2cc([C@@H]3S[C@H](CO)[C@@H](O)[C@H](O)[C@H]3O)c(OC)cc2C)cc1` has an AUC(0-inf) of 3050 ng·h/mL (human, plasma; oral, 9 mg, single dose, fasted, healthy volunteers).
The AUC(0-inf) of `CS(=O)(=O)n1cc2c(n1)CN([C@H]1CO[C@H](c3cc(F)ccc3F)[C@@H](N)C1)C2` is reported as 9.78 µM·h (male human, plasma; oral, 10 mg, single dose, fasted).
`O=C(CCCCCCC(=O)Nc1ccccc1)NO` has an AUC(0-inf) of 2.48 µM·h (human, serum; oral, 300 mg).
With `O=C(c1nc2n(n1)[C@H](c1ccccc1)C[C@@H]2F)C1CC1` the AUC(0-inf) was 4920 ng·h/mL (human, plasma; oral, 25 mg, single dose, fasted, healthy volunteers).
